{"data": "Experimental data from different studies", "HLA class I histocompatibility antigen, A alpha chain": "HLA class I histocompatibility antigen, A alpha chain (Homo sapiens, UniProt P04439)", "USP7": "Ubiquitin carboxyl-terminal hydrolase 7 (USP7, Homo sapiens, UniProt Q93009)", "Proteasome component C5/PSMB5 chymotrypsin-like site": "Proteasome component C5/PSMB5, chymotrypsin-like site (Homo sapiens, UniProt P20618+P28074)", "4'-phosphopantetheinyl transferase PptT": "4'-phosphopantetheinyl transferase PptT (Mycobacterium tuberculosis, UniProt O33336)", "NEU1": "Sialidase-1 (NEU1, Homo sapiens, UniProt Q99519)", "USP28": "Ubiquitin carboxyl-terminal hydrolase 28 (USP28, Homo sapiens, UniProt Q96RU2)", "EPHA6": "Ephrin type-A receptor 6 (EPHA6, Homo sapiens, UniProt Q9UF33)", "note": "Lines come from different studies, so protocols differ.", "UniProt P20618, sequence (whole entry, looked up)": "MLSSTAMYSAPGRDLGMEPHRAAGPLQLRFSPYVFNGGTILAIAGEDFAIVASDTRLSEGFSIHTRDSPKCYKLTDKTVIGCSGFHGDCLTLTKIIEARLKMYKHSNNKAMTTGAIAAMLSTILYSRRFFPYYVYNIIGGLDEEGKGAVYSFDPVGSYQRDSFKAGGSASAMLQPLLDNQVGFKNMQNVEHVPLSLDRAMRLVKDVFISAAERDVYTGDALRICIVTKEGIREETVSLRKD", "UniProt P28074, sequence (whole entry, looked up)": "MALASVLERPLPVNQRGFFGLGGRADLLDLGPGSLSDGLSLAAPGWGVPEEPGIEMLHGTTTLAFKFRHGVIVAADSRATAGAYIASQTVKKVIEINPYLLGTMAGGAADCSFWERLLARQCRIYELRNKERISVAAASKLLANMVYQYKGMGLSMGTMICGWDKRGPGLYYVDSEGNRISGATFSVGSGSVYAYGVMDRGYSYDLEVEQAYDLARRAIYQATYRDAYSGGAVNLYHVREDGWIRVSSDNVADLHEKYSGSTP", "UniProt Q96RU2, sequence (whole entry, looked up)": "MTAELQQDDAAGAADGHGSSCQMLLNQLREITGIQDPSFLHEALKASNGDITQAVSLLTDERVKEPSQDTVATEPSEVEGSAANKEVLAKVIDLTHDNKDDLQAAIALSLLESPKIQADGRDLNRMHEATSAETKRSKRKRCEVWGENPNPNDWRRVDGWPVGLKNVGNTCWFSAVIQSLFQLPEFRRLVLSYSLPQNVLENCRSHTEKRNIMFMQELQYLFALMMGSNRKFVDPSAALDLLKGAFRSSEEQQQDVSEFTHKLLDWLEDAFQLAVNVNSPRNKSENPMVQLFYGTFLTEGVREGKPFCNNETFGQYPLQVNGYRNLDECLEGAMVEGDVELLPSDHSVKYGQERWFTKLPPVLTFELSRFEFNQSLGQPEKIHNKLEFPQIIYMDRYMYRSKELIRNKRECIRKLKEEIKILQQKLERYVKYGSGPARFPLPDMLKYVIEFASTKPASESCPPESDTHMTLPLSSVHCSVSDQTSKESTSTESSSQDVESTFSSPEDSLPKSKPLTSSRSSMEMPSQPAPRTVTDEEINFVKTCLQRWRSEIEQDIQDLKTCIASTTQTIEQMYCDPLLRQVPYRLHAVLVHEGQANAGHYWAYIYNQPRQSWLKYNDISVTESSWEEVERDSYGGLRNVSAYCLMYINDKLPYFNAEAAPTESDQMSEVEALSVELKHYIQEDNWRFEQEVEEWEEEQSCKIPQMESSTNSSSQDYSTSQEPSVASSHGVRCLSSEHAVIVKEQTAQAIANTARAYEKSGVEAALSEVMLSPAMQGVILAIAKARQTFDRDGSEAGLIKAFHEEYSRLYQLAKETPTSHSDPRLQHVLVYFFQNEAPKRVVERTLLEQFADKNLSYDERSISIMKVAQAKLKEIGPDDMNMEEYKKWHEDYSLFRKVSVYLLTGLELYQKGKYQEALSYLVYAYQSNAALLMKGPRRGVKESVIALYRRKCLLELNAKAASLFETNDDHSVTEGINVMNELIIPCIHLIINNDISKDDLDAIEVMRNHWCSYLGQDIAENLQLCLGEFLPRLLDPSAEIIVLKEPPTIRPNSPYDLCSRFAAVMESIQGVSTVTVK", "UniProt Q9UF33, sequence (whole entry, looked up)": "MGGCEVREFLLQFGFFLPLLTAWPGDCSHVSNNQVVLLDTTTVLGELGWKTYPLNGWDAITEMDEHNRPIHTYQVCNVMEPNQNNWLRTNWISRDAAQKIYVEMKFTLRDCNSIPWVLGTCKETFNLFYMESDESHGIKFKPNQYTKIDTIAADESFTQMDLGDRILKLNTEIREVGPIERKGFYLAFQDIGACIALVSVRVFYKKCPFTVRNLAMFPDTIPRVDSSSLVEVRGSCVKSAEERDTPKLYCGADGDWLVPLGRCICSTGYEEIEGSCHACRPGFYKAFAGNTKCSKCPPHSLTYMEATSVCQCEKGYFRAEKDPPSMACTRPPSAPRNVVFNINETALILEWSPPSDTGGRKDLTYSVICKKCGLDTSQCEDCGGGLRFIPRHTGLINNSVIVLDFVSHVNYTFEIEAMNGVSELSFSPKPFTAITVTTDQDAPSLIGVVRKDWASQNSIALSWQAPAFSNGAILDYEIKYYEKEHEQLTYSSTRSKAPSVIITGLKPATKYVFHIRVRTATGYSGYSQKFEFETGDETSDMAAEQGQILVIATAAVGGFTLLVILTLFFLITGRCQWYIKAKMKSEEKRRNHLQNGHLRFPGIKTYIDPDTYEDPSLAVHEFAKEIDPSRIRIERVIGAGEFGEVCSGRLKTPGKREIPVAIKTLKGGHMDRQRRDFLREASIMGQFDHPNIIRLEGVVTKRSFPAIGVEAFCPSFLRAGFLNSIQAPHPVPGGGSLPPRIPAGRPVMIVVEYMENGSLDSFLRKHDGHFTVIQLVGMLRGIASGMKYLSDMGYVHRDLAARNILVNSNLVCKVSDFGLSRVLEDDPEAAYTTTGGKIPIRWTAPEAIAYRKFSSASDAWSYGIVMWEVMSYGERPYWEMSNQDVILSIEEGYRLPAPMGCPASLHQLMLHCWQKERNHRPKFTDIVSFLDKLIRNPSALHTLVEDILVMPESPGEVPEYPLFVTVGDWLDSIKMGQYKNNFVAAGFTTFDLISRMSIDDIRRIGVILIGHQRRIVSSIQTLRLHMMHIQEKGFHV", "UniProt Q93009, sequence (whole entry, looked up)": "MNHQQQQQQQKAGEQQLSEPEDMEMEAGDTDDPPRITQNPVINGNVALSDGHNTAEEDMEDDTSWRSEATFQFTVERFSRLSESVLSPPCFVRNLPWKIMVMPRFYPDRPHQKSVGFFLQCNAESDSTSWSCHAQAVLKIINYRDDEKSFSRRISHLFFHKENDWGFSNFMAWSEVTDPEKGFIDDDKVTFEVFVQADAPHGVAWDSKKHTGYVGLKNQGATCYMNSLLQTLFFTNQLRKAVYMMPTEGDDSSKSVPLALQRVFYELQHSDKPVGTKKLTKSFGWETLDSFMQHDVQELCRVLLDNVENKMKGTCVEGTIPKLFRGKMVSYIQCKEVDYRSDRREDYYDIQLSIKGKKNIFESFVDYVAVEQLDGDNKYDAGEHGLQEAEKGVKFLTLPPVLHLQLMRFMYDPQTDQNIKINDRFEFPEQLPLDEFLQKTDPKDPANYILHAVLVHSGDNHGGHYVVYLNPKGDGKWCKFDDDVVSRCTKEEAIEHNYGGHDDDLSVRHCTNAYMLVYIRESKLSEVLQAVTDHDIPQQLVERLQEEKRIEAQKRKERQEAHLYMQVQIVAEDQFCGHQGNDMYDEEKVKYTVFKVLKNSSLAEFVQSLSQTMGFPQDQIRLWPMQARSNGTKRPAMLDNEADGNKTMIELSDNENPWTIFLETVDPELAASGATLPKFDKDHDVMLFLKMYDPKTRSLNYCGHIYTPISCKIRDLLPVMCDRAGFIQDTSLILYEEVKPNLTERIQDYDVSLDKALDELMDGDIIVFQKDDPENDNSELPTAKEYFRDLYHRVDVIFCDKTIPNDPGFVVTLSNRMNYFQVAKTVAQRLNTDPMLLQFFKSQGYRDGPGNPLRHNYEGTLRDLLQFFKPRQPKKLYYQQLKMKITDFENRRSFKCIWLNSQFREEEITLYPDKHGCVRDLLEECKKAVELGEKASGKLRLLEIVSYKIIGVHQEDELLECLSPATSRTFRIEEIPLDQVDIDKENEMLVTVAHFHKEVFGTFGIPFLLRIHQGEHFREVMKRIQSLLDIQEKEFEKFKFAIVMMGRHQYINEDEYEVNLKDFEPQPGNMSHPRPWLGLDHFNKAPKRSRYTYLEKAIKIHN", "UniProt O33336, sequence (whole entry, looked up)": "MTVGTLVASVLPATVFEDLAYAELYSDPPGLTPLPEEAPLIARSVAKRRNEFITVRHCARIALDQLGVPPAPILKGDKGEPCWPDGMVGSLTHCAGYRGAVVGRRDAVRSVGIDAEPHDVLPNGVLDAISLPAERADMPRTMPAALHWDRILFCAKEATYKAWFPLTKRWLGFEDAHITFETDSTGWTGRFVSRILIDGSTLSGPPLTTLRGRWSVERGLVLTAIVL", "UniProt P52895, sequence (whole entry, looked up)": "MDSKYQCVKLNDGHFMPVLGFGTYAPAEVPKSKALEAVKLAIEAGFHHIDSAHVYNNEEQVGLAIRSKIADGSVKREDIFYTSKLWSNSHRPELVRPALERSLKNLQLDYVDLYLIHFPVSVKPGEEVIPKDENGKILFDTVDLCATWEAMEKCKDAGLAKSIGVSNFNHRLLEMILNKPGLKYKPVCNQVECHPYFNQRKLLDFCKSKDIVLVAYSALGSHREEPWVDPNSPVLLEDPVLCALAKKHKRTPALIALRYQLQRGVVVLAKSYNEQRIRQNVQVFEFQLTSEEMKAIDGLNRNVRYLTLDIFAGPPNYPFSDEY", "UniProt Q9NUW8, sequence (whole entry, looked up)": "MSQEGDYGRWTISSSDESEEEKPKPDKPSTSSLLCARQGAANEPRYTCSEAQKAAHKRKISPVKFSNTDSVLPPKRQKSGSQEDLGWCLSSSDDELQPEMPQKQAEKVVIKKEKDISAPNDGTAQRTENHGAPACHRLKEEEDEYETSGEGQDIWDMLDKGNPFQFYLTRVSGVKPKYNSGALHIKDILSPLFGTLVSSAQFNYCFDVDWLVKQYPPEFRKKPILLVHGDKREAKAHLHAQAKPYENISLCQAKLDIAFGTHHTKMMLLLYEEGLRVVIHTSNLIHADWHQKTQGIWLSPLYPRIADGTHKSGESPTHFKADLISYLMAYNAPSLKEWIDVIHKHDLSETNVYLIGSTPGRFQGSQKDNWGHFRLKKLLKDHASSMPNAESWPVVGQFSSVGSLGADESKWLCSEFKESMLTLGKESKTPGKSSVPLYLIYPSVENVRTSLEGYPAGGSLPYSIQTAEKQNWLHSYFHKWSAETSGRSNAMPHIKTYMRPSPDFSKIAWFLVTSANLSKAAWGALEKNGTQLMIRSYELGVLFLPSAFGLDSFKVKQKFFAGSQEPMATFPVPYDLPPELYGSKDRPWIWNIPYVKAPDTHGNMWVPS"}
{"Compound": "Oc1cccc(CCN(CCc2ccccc2)CC2CCC2)c1", "tested on": "Oprm1 (Rattus norvegicus, UniProt P33535)", "test": "β-arrestin recruitment, antagonist", "quantity": "IC50", "result": "2.8 µM"}
{"Compound": "CS(=O)(=O)c1ccc2nc(-c3ccccc3)c(Nc3ccc(C(=O)O)cc3)n2c1", "tested on": "TDP1 (Homo sapiens, UniProt Q9NUW8)", "test": "enzyme activity, inhibitor, fluorescence", "conditions": "lysate", "quantity": "IC50", "result": "38.4 µM"}
{"Compound": "CC(C)[C@H](NC(=O)[C@@H](N)CCCCN)C(=O)N[C@@H](CC(=O)O)C(=O)N1CCC[C@H]1C(=O)N[C@@H](CCCCN)C(=O)N[C@@H](Cc1ccccc1)C(=O)N[C@H](C(=O)N[C@@H](CO)C(=O)N[C@@H](Cc1ccccc1)C(=O)O)[C@@H](C)O", "tested on": "HLA class I histocompatibility antigen, A alpha chain", "test": "cell-free assay", "quantity": "IC50", "result": "19.7 µM"}
{"Compound": "COc1ncccc1-c1cnn2ccc(N3CCN(C(=O)OC(C)C)CC3)nc12", "tested on": "LATS2 (Homo sapiens, UniProt Q9NRM7)", "test": "binding, competition with immobilised ligand", "conditions": "1 µM", "quantity": "remaining binding", "result": "82%"}
{"Compound": "CCC(C(=O)Nc1cc(NC2CCOCC2)ccc1C)n1cc(Br)cc2nc(SCc3ccc(F)cc3)nc1-2 (stereo not drawn)", "tested on": "USP7", "test": "enzyme activity, inhibitor", "quantity": "IC50", "result": "> 100 µM"}
{"Compound": "CC(C)C[C@H](NC(=O)OCc1ccccc1)C(=O)N[C@@H](CC(C)C)C(=O)N[C@@H](CC(C)C)C(=O)C(=O)Nc1cccc2ncccc12", "tested on": "Proteasome component C5/PSMB5 chymotrypsin-like site", "test": "enzyme activity in cells, inhibitor", "quantity": "IC50", "result": "0.102 µM"}
{"Compound": "CC[C@H](C)[C@H](NC(=O)[C@@H]1CCCN1C(=O)[C@H](CC(N)=O)NC(=O)[C@H](CC(C)C)NC(=O)[C@@H](N)CCCNC(=N)N)C(=O)NCC(=O)N[C@@H](Cc1ccc(O)cc1)C(=O)N[C@@H](CO)C(=O)N[C@@H](Cc1ccc(O)cc1)C(=O)O", "tested on": "HLA class I histocompatibility antigen, A alpha chain", "test": "cell-free assay", "quantity": "IC50", "result": "0.015 µM"}
{"Compound": "O=S(=O)(O)C(F)(F)C(F)(F)C(F)(F)C(F)(F)C(F)(F)C(F)(F)C(F)(F)C(F)(F)F", "tested on": "AKR1C2 (Homo sapiens, UniProt P52895)", "test": "enzyme activity, inhibitor, fluorescence", "quantity": "IC50", "result": "> 50 µM"}
{"Compound": "CC(O)(P(=O)(O)O)P(=O)(O)O", "tested on": "ENO1 (Candida albicans, UniProt P30575)", "test": "enzyme activity, inhibitor, absorbance", "quantity": "IC50", "result": "> 50 µM"}
{"Compound": "O=c1c2cc(Cl)ccc2[nH]c(=S)n1Cc1ncc[nH]1", "tested on": "4'-phosphopantetheinyl transferase PptT", "test": "enzyme activity, inhibitor, FP", "quantity": "IC50", "result": "14.3 µM"}
{"Compound": "CN1C[C@@H]2C[C@H]1CN2c1nccc(-c2cnn3ncccc23)n1", "tested on": "DYRK1A (Homo sapiens, UniProt Q13627)", "test": "cell-free assay, TR-FRET", "quantity": "IC50", "result": "6.17 µM"}
{"Compound": "CSCC[C@H](NC(=O)[C@@H](N)CCCNC(=N)N)C(=O)N[C@@H](Cc1c[nH]c2ccccc12)C(=O)N[C@@H](CO)C(=O)N[C@@H](CCCCN)C(=O)N1CCC[C@H]1C(=O)N[C@@H](CC(C)C)C(=O)N[C@@H](CCC(N)=O)C(=O)N[C@@H](Cc1ccccc1)C(=O)O", "tested on": "HLA class I histocompatibility antigen, A alpha chain", "test": "cell-free assay", "quantity": "IC50", "result": "0.035 µM"}
{"Compound": "Cn1nccc1[C@]1(CNC(=O)c2ccc(F)c(F)c2-c2ccc(C(F)(F)F)cc2)NC(=O)NC1=O", "tested on": "A disintegrin and metalloproteinase with thrombospondin motifs 7 (Homo sapiens, UniProt Q9UKP4)", "test": "enzyme activity, inhibitor, FRET", "quantity": "IC50", "result": "0.00578 µM"}
{"Compound": "CCC(C(=O)Nc1cc(NC2COC2)ccc1C)n1cc(Br)cc2nc(SCc3ccc(F)cc3)nc1-2 (stereo not drawn)", "tested on": "Prothrombin (F2, Homo sapiens, UniProt P00734)", "test": "enzyme activity, inhibitor", "quantity": "IC50", "result": "> 100 µM"}
{"Compound": "CC(C)[C@H](N)C(=O)N1CCC[C@H]1C(=O)N[C@H](C(=O)N1CCC[C@H]1C(=O)N[C@@H](CC(=O)O)C(=O)O)C(C)C", "tested on": "DPP4 (Homo sapiens, UniProt P27487)", "test": "enzyme activity, inhibitor, absorbance", "conditions": "pH 8", "quantity": "IC50", "result": "74.5 µM"}
{"Compound": "CC(C)CCN[C@H]1[C@H]([C@H](O)[C@H](O)CO)OC(C(=O)O)=C[C@@H]1O", "tested on": "NEU1", "test": "enzyme activity, inhibitor", "quantity": "IC50", "result": "> 500 µM"}
{"Compound": "CSCC[C@H](NC(=O)[C@H](Cc1c[nH]cn1)NC(=O)[C@H](CC(=O)O)NC(=O)[C@H](Cc1ccc(O)cc1)NC(=O)[C@H](CCC(N)=O)NC(=O)[C@@H](N)CCCCN)C(=O)N[C@@H](Cc1ccc(O)cc1)C(=O)N[C@@H](CCC(N)=O)C(=O)N[C@@H](CC(C)C)C(=O)O", "tested on": "HLA class I histocompatibility antigen, A alpha chain", "test": "cell-free assay", "quantity": "IC50", "result": "0.99 µM"}
{"Compound": "CCC(C(=O)Nc1cc(NC2CNC2)ccc1C)n1cccc2nc(SCc3ccc(F)cc3)nc1-2 (stereo not drawn)", "tested on": "USP28", "test": "enzyme activity, inhibitor", "quantity": "IC50", "result": "> 100 µM"}
{"Compound": "CCCCNC(=O)N[C@H]1[C@H]([C@H](O)[C@H](O)CO)OC(C(=O)O)=C[C@@H]1O", "tested on": "NEU1", "test": "enzyme activity, inhibitor", "quantity": "IC50", "result": "50 µM"}
{"Compound": "Nc1ncc(-c2nc(N3CCOCC3)nc(N3CCOCC3)n2)c(C(F)F)n1", "tested on": "EPHA6", "test": "cell-free assay, competition with immobilised ligand", "conditions": "10 µM", "quantity": "remaining binding", "result": "94%"}
{"Compound": "CCC(C(=O)Nc1cc(NC2CCNCC2)ccc1C)n1cc(Cl)cc2nc(SCc3ccc(F)cc3)nc1-2 (stereo not drawn)", "tested on": "USP28", "test": "enzyme activity, inhibitor", "quantity": "IC50", "result": "> 100 µM"}
{"Compound": "CC(C)C[C@H](NC(=O)[C@H](Cc1ccccc1)NC(=O)[C@H](C)NC(=O)OCc1ccccc1)C(=O)C(=O)Nc1ccccc1", "tested on": "Proteasome component C5/PSMB5 chymotrypsin-like site", "test": "enzyme activity in cells, inhibitor", "quantity": "IC50", "result": "1.95 µM"}
{"Compound": "CSCC[C@H](NC(=O)[C@@H]1CCCN1C(=O)[C@H](CCCCN)NC(=O)[C@H](CC(=O)O)NC(=O)[C@H](Cc1c[nH]c2ccccc12)NC(=O)[C@H](CCC(N)=O)NC(=O)[C@@H](N)CCCCN)C(=O)N[C@@H](Cc1ccc(O)cc1)C(=O)N[C@@H](Cc1ccc(O)cc1)C(=O)O", "tested on": "HLA class I histocompatibility antigen, A alpha chain", "test": "cell-free assay", "quantity": "IC50", "result": "0.026 µM"}
{"Compound": "C[N+]12CCC(CC1)[C@@H](Cc1nc(-c3cccs3)no1)C2", "tested on": "CHRNA9 (Homo sapiens, UniProt Q9UGM1)", "test": "ion current, antagonist, two-electrode voltage clamp", "conditions": "oocytes", "quantity": "IC50", "result": "0.14 µM"}
{"Compound": "CC[C@H](C)[C@H](NC(=O)[C@@H]1CCCN1C(=O)[C@H](Cc1c[nH]cn1)NC(=O)[C@H](CCCCN)NC(=O)[C@H](Cc1ccc(O)cc1)NC(=O)[C@@H](NC(=O)[C@@H](N)Cc1ccc(O)cc1)[C@@H](C)O)C(=O)N[C@@H](Cc1ccc(O)cc1)C(=O)N[C@@H](CC(C)C)C(=O)O", "tested on": "HLA class I histocompatibility antigen, A alpha chain", "test": "cell-free assay", "quantity": "IC50", "result": "0.151 µM"}
{"Compound": "N.N.[Cl][Pt][Cl]", "tested on": "KU812", "test": "cell growth or viability, ATP luminescence", "conditions": "10 µM, 72 h", "quantity": "inhibition", "result": "98%"}
{"Compound": "Cc1nn(C)cc1-c1nc2c(N3CCN(Cc4ccc(Cl)cc4)CC3)c(Cl)cnc2[nH]1", "tested on": "CDKL3 (Homo sapiens, UniProt Q8IVW4)", "test": "binding, competition with immobilised ligand", "conditions": "1 µM", "quantity": "remaining binding", "result": "100%"}
{"Compound": "CC(c1cccnc1)n1c(=S)[nH]c2cc(CO)c(Cl)cc2c1=O (stereo not drawn)", "tested on": "4'-phosphopantetheinyl transferase PptT", "test": "enzyme activity, inhibitor, FP", "quantity": "IC50", "result": "7.51 µM"}
{"Compound": "CCC(C(=O)Nc1cc(NC2CCNC2)ccc1C)n1cc(Br)cc2nc(SCc3ccc(F)cc3)nc1-2 (stereo not drawn)", "tested on": "USP7", "test": "enzyme activity, inhibitor", "quantity": "IC50", "result": "> 100 µM"}
{"Compound": "[2H]c1c([2H])c([C@]2([2H])CCCN2C(=O)C(C)(C)Oc2ccc3cn[nH]c3c2)c([2H])c([2H])c1C([2H])([2H])[2H]", "tested on": "EPHA6", "test": "binding, competition with immobilised ligand", "conditions": "1 µM", "quantity": "remaining binding", "result": "94%"}
{"Compound": "CC(=O)c1ccc(-c2ccc(C(=O)N[C@@H](CC(C)C)C(=O)N[C@@H](CC(C)C)C(=O)N[C@@H](CC(C)C)C(=O)C(=O)Nc3cccc(C(C)=O)c3)o2)cc1", "tested on": "Proteasome component C5/PSMB5 chymotrypsin-like site", "test": "enzyme activity in cells, inhibitor", "quantity": "IC50", "result": "0.0245 µM"}
{"Compound": "CC(C)(C)c1cn([C@H]2[C@H]([C@H](O)[C@H](O)CO)OC(C(=O)O)=C[C@@H]2O)nn1", "tested on": "NEU1", "test": "enzyme activity, inhibitor", "quantity": "IC50", "result": "220 µM"}
{"Compound": "CC[C@H](C)[C@H](NC(=O)[C@H](CCCCN)NC(=O)[C@H](CO)NC(=O)[C@H](Cc1ccccc1)NC(=O)[C@H](CCSC)NC(=O)[C@@H](N)CCCCN)C(=O)N[C@@H](CCSC)C(=O)N[C@H](C(=O)N[C@@H](Cc1ccc(O)cc1)C(=O)O)[C@@H](C)O", "tested on": "HLA class I histocompatibility antigen, A alpha chain", "test": "cell-free assay", "quantity": "IC50", "result": "0.012 µM"}
{"note": "Some of these lines once more:"}
{"Compound": "[2H]c1c([2H])c([C@]2([2H])CCCN2C(=O)C(C)(C)Oc2ccc3cn[nH]c3c2)c([2H])c([2H])c1C([2H])([2H])[2H]", "tested on": "EPHA6", "test": "binding, competition with immobilised ligand", "conditions": "1 µM", "quantity": "remaining binding", "result": "94%"}
{"Compound": "CC(=O)c1ccc(-c2ccc(C(=O)N[C@@H](CC(C)C)C(=O)N[C@@H](CC(C)C)C(=O)N[C@@H](CC(C)C)C(=O)C(=O)Nc3cccc(C(C)=O)c3)o2)cc1", "tested on": "Proteasome component C5/PSMB5 chymotrypsin-like site", "test": "enzyme activity in cells, inhibitor", "quantity": "IC50", "result": "0.0245 µM"}
{"Compound": "CC(C)(C)c1cn([C@H]2[C@H]([C@H](O)[C@H](O)CO)OC(C(=O)O)=C[C@@H]2O)nn1", "tested on": "NEU1", "test": "enzyme activity, inhibitor", "quantity": "IC50", "result": "220 µM"}
